Experimental data collected from several papers.
Each line is one published result; not all experiments were run side by side. “And” joins repeats or separate records; there may be more than shown. ± gives the spread as reported.
TLK1: Serine/threonine-protein kinase tousled-like 1 (TLK1, Homo sapiens, UniProt Q9UKI8)
AVPR1B: Vasopressin V1b receptor (AVPR1B, Homo sapiens, UniProt P47901)
qscR: qscR (Pseudomonas aeruginosa, UniProt G3XD77)

N#C[C@@H](O[C@@H]1O[C@H](CO)[C@@H](O)[C@H](O)[C@H]1O)c1ccc(O)cc1  Km (BGLU7 (Oryza sativa, UniProt Q75I93); substrate): 6150 ± 810 µM
CO/N=C(\C(=O)N[C@@H]1C(=O)N2C(C(=O)O)=C(COC(C)=O)CS[C@H]12)c1csc(N)n1  kinact/KI (Penicillin-binding protein 2X (Streptococcus pneumoniae R6, UniProt P59676); inhibitor; Streptococcus pneumoniae): 730000 ± 58000 M⁻¹ s⁻¹
Nc1ncc(-c2nc(N3CCOCC3)nc(N3CCOCC3)n2)c(C(F)F)n1  remaining binding (EGFR (Homo sapiens, UniProt P00533, del746-750); KINOMEscan; 10 µM): 77%
Cc1nn(C)cc1-c1nc2c(N3CCN(Cc4ccc(Cl)cc4)CC3)c(Cl)cnc2[nH]1  remaining binding (TLK1; KINOMEscan; 1 µM; relative to: DMSO control): 66%
CN(C(=O)n1cnc(-c2ccc[n+]([O-])c2)c1)C1CCCCC1  inhibition (AVPR1B; radioligand binding; 10 µM, together with: [3H]arginine vasopressin): -1%
O=C(O)CCC(=O)C(=O)O  Km (HIF1AN (Homo sapiens, UniProt Q9NWT6); substrate; pH 7.00, 37.0 °C, together with: CTAD 100 µM): 9 ± 2 µM
CC(=O)C1C(=O)c2ccccc2C1=O  IC50 (NR1H3 (Homo sapiens, UniProt Q13133); coactivator recruitment): inactive
CC1(C)S[C@@H]2[C@H](/N=C/N3CCCCCC3)C(=O)N2[C@H]1C(=O)O  kinact/KI (Penicillin-binding protein 2a (pbp2a, Streptococcus pneumoniae, UniProt Q8DNB6); inhibitor): 62 ± 2.7 M⁻¹ s⁻¹
CCN(CC)CCCC[C@H](NC(=O)[C@H](CC(C)C)NC(=O)[C@H](C)NC(=O)[C@H](Cc1ccccc1)NC(=O)c1ccc(C(C)(C)C)cc1)C(=O)N[C@@H](CO)C(=O)OC  specific binding (CXCR2 (Homo sapiens, UniProt P25025); radioligand binding; 10 µM): 112%
CCOC(=O)COc1ccc2c(=O)c3ccccc3oc2c1  Vmax (ache (Electrophorus electricus, UniProt O42275); enzyme activity, inhibitor, Lineweaver-Burk plot; 0.84 µM; higher = faster reaction): 0.0053 a.u.
CN(C)C(=O)c1cc2cnc(Nc3ccc(C(=O)NCCCCCCOc4cccc5c4C(=O)N(C4CCC(=O)NC4=O)C5=O)cc3)nc2n1C1CCCC1 (stereo not shown)  Dmax (Aurora kinase A (AURKA, Homo sapiens, UniProt O14965); degrader; MCF7): 94%
CC12CCC(CC1)C(C)(C)O2  Ks change (1,8-cineole 2-endo-monooxygenase (cinA, Citrobacter braakii, UniProt Q8VQF6, Y81F); substrate binding, spin shift difference spectroscopy; concentration not given, Y81F mutant; relative to: wild type, higher = weaker binding): ~20 fold
Nc1ncnc2c1ncn2[C@@H]1O[C@H](COP(=O)(O)OP(=O)(O)OP(=O)(O)O)[C@@H](O)[C@H]1O  fluorescence ratio (matB (Rhodopseudomonas palustris, UniProt Q6ND88, C106A/K488A/Q457C/R286C); ATP binding; pH 8.0, 100 mM NaCl; relative to: bound over unbound): 3.3
CCCCC/C=C\C/C=C\C/C=C\C/C=C\CCCC(=O)NCCO  Hill coefficient (Trpv1 (Mus musculus, UniProt Q704Y3, S513T); ion current, agonist, whole-cell patch clamp; S513T): 3.08 ± 0.37
O=C(O)COP(=O)(O)O  Ki ratio (TPI1 (Saccharomyces cerevisiae, UniProt P00942, Y208A); enzyme activity, competitive inhibitor, GPDH/NADH-coupled; pH 8.9, 25 °C, ionic strength 0.1 NaCl, together with: glyceraldehyde 3-phosphate substrate; relative to: mutant over wild type): 20
COc1cc(Nc2ncc(F)c(Nc3ccc4c(n3)NC(=O)C(C)(C)O4)n2)cc(OC)c1OC  inhibition (TLK1; KINOMEscan; 10 µM): 81%
COc1cc(N)c(Cl)cc1C(=O)NC1CN2CCC1CC2 (stereo not shown)  log2 fold change (PRLHR (Homo sapiens, UniProt P49683); receptor activation, TANGO luminescence; concentration not given, unconfirmed screen; relative to: vehicle control): 0.181
O=C(c1ccc(Cl)cc1)N1CCN2C(=O)N(OC(=O)N3CCOc4ccccc43)C(=O)C2C1 (stereo not shown)  peptide ratio (PPT2 (Homo sapiens, UniProt Q9UMR5); MS-based ABPP; SW-620 conditioned medium; 10 µM, 1 h, 37 °C; relative to: compound over DMSO, lower = more inhibition): 0.41 and 0.38
CN1CCN(c2cc(-c3ccncc3)c(-c3ccc4ccccc4c3)nn2)CC1  inhibition (AVPR1B; antagonist, FLIPR; 10 µM): 21.3%
CC(=O)SCC[N+](C)(C)C  Km (cholinesterase, Homarus americanus muscle; enzyme activity, substrate, Ellman; sarcoplasmic reticulum fraction; pH 7.4): 30 µM
COc1ccc(N2C(=O)N(c3c(C)cccc3Cl)Cc3cnc(Nc4ccc(C5CCN(C)CC5)cc4OC)nc32)nc1  inhibition (GSK3B (Homo sapiens, UniProt P49841); kinase activity, inhibitor; 0.5 µM, kinase GSK-3-BETA): 11%
[2H]c1c([2H])c([C@]2([2H])CCCN2C(=O)C(C)(C)Oc2ccc3cn[nH]c3c2)c([2H])c([2H])c1C([2H])([2H])[2H]  remaining binding (SYK (Homo sapiens, UniProt P43405); KINOMEscan; 1 µM; relative to: DMSO control): 76%
CN(C(=O)n1cnc(-c2ccc[n+]([O-])c2)c1)C1CCCCC1  fold change (Monoacylglycerol lipase ABHD6 (Abhd6, Rattus norvegicus, UniProt Q5XI64); enzyme activity, ABPP; rat, brain; oral, 10 mg/kg/day, 1 days; relative to: vehicle): -6.5
C[C@H]1CN(c2n[nH]c3nc(N[C@H]4CC[C@H](NS(=O)(=O)CCC(F)(F)F)CC4)ncc23)CCO1  remaining binding (Dolichyl-diphosphooligosaccharide--protein glycosyltransferase 48 kDa subunit (Homo sapiens, UniProt P39656); Kinobeads competition, refers to: DDOST; 20 µM, unit not given; relative to: vehicle): 1.23
O=C(Nc1cnccc1Cl)N1CCN(Cc2ccc3c(c2)OC(F)(F)O3)CC1  inhibition (CX3CR1 (Homo sapiens, UniProt P49238); radioligand binding, inhibitor; concentration not given): 3% and -1%
O=C(CCCOc1ccc(Cl)cc1)NC1CCOC1=O (stereo not shown)  melting temperature (qscR; ligand, differential scanning fluorimetry; ligand complex): 52.9 °C
CC=O  kcat/Km decrease (ADH1 H48S Saccharomyces cerevisiae; enzyme activity, substrate; pH 7.3; relative to: wild type): 3 fold
COC(=O)[C@@]1(O)C[C@H]2O[C@]1(C)n1c3ccccc3c3c4c(c5c6ccccc6n2c5c31)C(=O)NC4  kinase activity (MAPK3 (Homo sapiens, UniProt P27361); ADP-Glo; 35 µM, together with: MBP substrate): 122% and 108% and 81.6%
O=C[C@H](O)COP(=O)(O)O  kcat (TPI1 (Saccharomyces cerevisiae, UniProt P00942, S211G); substrate, GPDH/NADH-coupled; pH 4.9, 25 °C): 4100 ± 400 s⁻¹
Nc1ncnc2c1ncn2[C@@H]1O[C@@H]2COP(=O)(O)O[C@H]3[C@@H](O)[C@H](n4cnc5c(N)ncnc54)O[C@@H]3COP(=O)(O)O[C@H]3[C@@H](O)[C@H](n4cnc5c(N)ncnc54)O[C@@H]3COP(=O)(O)O[C@H]2[C@H]1O  binding (Thoeris anti-defense 1 (tad1, Bacillus phage SBSphiJ7, UniProt P0DW57); native gel and ITC; concentration not given): binds
COc1cc(O)cc(/C=C/c2ccc(O)cc2)c1  binding stoichiometry (O-methyltransferase (Sorghum bicolor, UniProt A0A1B6PFV1); isothermal titration calorimetry; concentration not given, apo protein): 0.95 ± 0.01 sites
Clc1cc2c(cc1Cl)Oc1cc(Cl)c(Cl)cc1O2  fold induction (Uncharacterized protein (Takifugu rubripes, UniProt Q4JHL5); reporter gene, agonist, dual-luciferase; COS-7; 0.1 µM, 28 h; relative to: DMSO): 2.58
CCCCCCCCCC(=O)CC(=O)Nc1ccccc1  K0.5 (qscR; ligand binding, FRET displacement; intact cells; apparent affinity): 22.7 µM
COc1ccc(Nc2nn3c(-c4ccccc4)ccnc3c2C(=O)Nc2ccccc2)cc1  decrease in α-glucosidase band quantity (α-glucosidase; SDS-PAGE; concentration not given, concentration equal to IC50): 56.1%
O=C(O)c1ccc(CN2C(=O)CN(C(=O)c3ccco3)c3cc(-c4ccccc4)c(Oc4ccc(C(=O)O)cc4)cc32)cc1  sGC activity (GUCY1B1, with alpha-1 subunit (Homo sapiens, UniProt Q02153); purified recombinant enzyme; 10 µM, wild-type α1/β1; relative to: basal): 4.4 fold
Cc1ccc([C@H]2C[C@@H]2COc2cc(NCc3nnc(C)s3)nc(C)n2)nc1  selectivity ratio (PDE8A (Homo sapiens, UniProt O60658); enzyme activity, inhibitor, IMAP fluorescence polarization; isoform PDE8A1; relative to: Ki target over Ki PDE10A2): > 1.72e+06 fold
O=C(Nc1cccnn1)N1CCC(=Cc2cccc(Oc3ccc(C(F)(F)F)cn3)c2)CC1  inhibition of binding (GRM5 (Homo sapiens, UniProt P41594); radioligand binding; 10 µM, together with: [3H]quisqualic acid): 9%

Excerpt of the above:
O=C(O)COP(=O)(O)O  Ki ratio (TPI1 (Saccharomyces cerevisiae, UniProt P00942, Y208A); enzyme activity, competitive inhibitor, GPDH/NADH-coupled; pH 8.9, 25 °C, ionic strength 0.1 NaCl, together with: glyceraldehyde 3-phosphate substrate; relative to: mutant over wild type): 20
COc1cc(Nc2ncc(F)c(Nc3ccc4c(n3)NC(=O)C(C)(C)O4)n2)cc(OC)c1OC  inhibition (TLK1; KINOMEscan; 10 µM): 81%
COc1cc(N)c(Cl)cc1C(=O)NC1CN2CCC1CC2 (stereo not shown)  log2 fold change (PRLHR (Homo sapiens, UniProt P49683); receptor activation, TANGO luminescence; concentration not given, unconfirmed screen; relative to: vehicle control): 0.181
